Results of several laboratories.
U2AF2: U2AF2 148-342 (Homo sapiens, UniProt P26368)
Sequence of UniProt P26368 (whole entry, looked up): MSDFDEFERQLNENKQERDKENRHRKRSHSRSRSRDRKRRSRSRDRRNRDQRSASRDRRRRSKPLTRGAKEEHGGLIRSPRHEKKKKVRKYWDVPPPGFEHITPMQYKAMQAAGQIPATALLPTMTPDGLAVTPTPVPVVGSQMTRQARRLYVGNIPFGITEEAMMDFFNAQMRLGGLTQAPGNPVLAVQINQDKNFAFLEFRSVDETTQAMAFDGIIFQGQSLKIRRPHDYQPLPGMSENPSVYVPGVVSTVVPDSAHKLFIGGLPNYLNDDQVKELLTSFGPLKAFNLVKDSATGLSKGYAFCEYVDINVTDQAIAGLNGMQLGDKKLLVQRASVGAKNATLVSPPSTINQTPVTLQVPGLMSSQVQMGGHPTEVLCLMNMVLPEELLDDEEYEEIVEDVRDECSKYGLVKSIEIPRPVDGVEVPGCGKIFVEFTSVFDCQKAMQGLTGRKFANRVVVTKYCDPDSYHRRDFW
B1: CRYAA R21Q/G98R (Homo sapiens, UniProt P02489); sequence looked up; chain MDVTIQHPWFKRTLGPFYPSQLFDQFFGEGLFEYDLLPFLSSTISPYYRQSLFRTVLDSGISEVRSDRDKFVIFLDVKHFSPEDLTVKVQDDFVEIHRKHNERQDDHGYISREFHRRYRLPSNVDQSALSCSLSADGMLTFCGPKIQTGLDATHAERAIPVSREEKPTSAPSS
B2: dlg1 1-97 Q26A (Drosophila melanogaster, UniProt P31007); sequence looked up; chain MPVKKQEAHRALELLEDYHARLSEPADRALRIAIERVIRIFKSRLFQALLDIQEFYELTLLDDSKSIQQKTAETLQIATKWEKDGQAVKIADFIKSS
B3: SPOP E47Q (Homo sapiens, UniProt O43791); sequence looked up; chain MSRVPSPPPPAEMSSGPVAESWCYTQIKVVKFSYMWTINNFSFCREQMGEVIKSSTFSSGANDKLKWCLRVNPKGLDEESKDYLSLYLLLVSCPKSEVRAKFKFSILNAKGEETKAMESQRAYRFVQGKDWGFKKFIRRDFLLDEANGLLPDDKLTLFCEVSVVQDSVNISGQNTMNMVKVPECRLADELGGLWENSRFTDCCLCVAGQEFQAHKAILAARSPVFSAMFEHEMEESKKNRVEINDVEPEVFKEMMCFIYTGKAPNLDKMADDLLAAADKYALERLKVMCEDALCSNLSVENAAEILILADLHSADQLKTQAVDFINYHASDVLETSGWKSMVVSHPHLVAEAYRSLASAQCPFLGPPRKRLKQS
B4: clcA C85A/H234C/R230C/L249C (Escherichia coli, UniProt P37019); chain MKTDTPSLETPQAARLRRRQLIRQLLERDKTPLAILFMAAVVGTLVGLAAVAFDKGVAWLQNQRMGALVHTADNYPLLLTVAFLASAVLAMFGYFLVRKYAPEAGGSGIPEIEGALEDQRPVRWWRVLPVKFFGGLGTLGGGMVLGREGPTVQIGGNIGRMVLDIFRLKGDEARHTLLATGAAAGLAAAFNAPLAGILFIIEEMRPQFRYTLISIKAVFIGVIMSTIMYCIFNCEVALIDVGKLSDAPCNTLWLYLILGIIFGIFGPIFNKWVLGMQDLLHRVHGGNITKWVLMGGAIGGLCGLLGFVAPATSGGGFNLIPIATAGNFSMGMLVFIFVARVITTLLCFSSGAPGGIFAPMLALGTVLGTAFGMVAVELFPQYHLEAGTFAIAGMGALLAASIRAPLTGIILVLEMTDNYQLILPMIITGLGATLLAQFTGGKPLYSAILARTLAKQEAEQLARSKAASASENT
B5: dszC S163A (Rhodococcus erythropolis, UniProt P54998); sequence looked up; chain MTLSPEKQHVRPRDAADNDPVAVARGLAEKWRATAVERDRAGGSATAEREDLRASGLLSLLVPREYGGWGADWPTAIEVVREIAAADGSLGHLFGYHLTNAPMIELIGSQEQEEHLYTQIAQNNWWTGNASSENNSHVLDWKVSATPTEDGGYVLNGTKHFCAGAKGSDLLFVFGVVQDDSPQQGAIIAAAIPTSRAGVTPNDDWAAIGMRQTDSGSTDFHNVKVEPDEVLGAPNAFVLAFIQSERGSLFAPIAQLIFANVYLGIAHGALDAAREYTRTQARPWTPAGIQQATEDPYTIRSYGEFTIALQGADAAAREAAHLLQTVWDKGDALTPEDRGELMVKVSGVKALATNAALNISSGVFEVIGARGTHPRYGFDRFWRNVRTHSLHDPVSYKIADVGKHTLNGQYPIPGFTS
B6: human CIP4; sequence looked up; chain MDWGTELWDQFEVLERHTQWGLDLLDRYVKFVKERTEVEQAYAKQLRSLVKKYLPKRPAKDDPESKFSQQQSFVQILQEVNDFAGQRELVAENLSVRVCLELTKYSQEMKQERKMHFQEGRRAQQQLENGFKQLENSKRKFERDCREAEKAAQTAERLDQDINATKADVEKAKQQAHLRSHMAEESKNEYAAQLQRFNRDQAHFYFSQMPQIFDKLQDMDERRATRLGAGYGLLSEAELEVVPIIAKCLEGMKVAANAVDPKNDSHVLIELHKSGFARPGDVEFEDFSQPMNRAPSDSSLGTPSDGRPELRGPGRSRTKRWPFGKKNKPRPPPLSPLGGPVPSALPNGPPSPRSGRDPLAILSEISKSVKPRLASFRSLRGSRGTVVTEDFSHLPPEQQRKRLQQQLEERSRELQKEVDQREALKKMKDVYEKTPQMGDPASLEPQIAETLSNIERLKLEVQKYEAWLAEAESRVLSNRGDSLSRHARPPDPPASAPPDSSSNSASQDTKESSEEPPSEESQDTPIYTEFDEDFEEEPTSPIGHCVAIYHFEGSSEGTISMAEGEDLSLMEEDKGDGWTRVRRKEGGEGYVPTSYLRVTLN
B7: FCY1 homodimer M100W (yeast, UniProt Q12178); sequence looked up; chain MVTGGMASKWDQKGMDIAYEEAALGYKEGGVPIGGCLINNKDGSVLGRGHNMRFQKGSATLHGEISTLENCGRLEGKVYKDTTLYTTLSPCDMCTGAIIWYGIPRCVVGENVNFKSKGEKYLQTRGHEVVVVDDERCKKIMKQFIDERPQDWFEDIGE
B8: Gm4951 N190A/E191A (Mus musculus, UniProt Q3UED7); sequence looked up; chain MGQLFSSRRSEDQDLSSSFIEYLKECEKGINIIPHEIITSIEINMKKGNIQEVNSTVRDMLREIDNTPLNVALTGETGSGKSSFINTLRGIGHEEGGAAHTGVTDKTKERHPYEHPKMPNVVFWDLPGTGSEDFQPKTYLEKMKFYEYDFFIIISATRFKKNDIDLAKAIGIMKKEFYFVRTQVDSDLRAAEDFKPQTFDREKVLQDIRLNCVNTFRENGIAEPPIFLISNKNVCHYDFPVLMDKLISDLPVFKRQNFMFSLPNITDSVIEKKRNFLRWKTWLEGFADGLLSFFLESDLETLEKSMKFYRTVFGVDDASLQRLARAWEIDQVDQVRAMIKSPAVFTPTDEETIQERLSRYNQEFCLANGYLLPKNHCREILYLKLYFLDMVTEDAKTLLKEICLRN
B9: clcA 1-465 C85A/L194A/I197A/L198A/I201A (Escherichia coli, UniProt P37019); chain MKTDTPSLETPQAARLRRRQLIRQLLERDKTPLAILFMAAVVGTLVGLAAVAFDKGVAWLQNQRMGALVHTADNYPLLLTVAFLASAVLAMFGYFLVRKYAPEAGGSGIPEIEGALEDQRPVRWWRVLPVKFFGGLGTLGGGMVLGREGPTVQIGGNIGRMVLDIFRLKGDEARHTLLATGAAAGLAAAFNAPAAGAAFIAEEMRPQFRYTLISIKAVFIGVIMSTIMYRIFNHEVALIDVGKLSDAPLNTLWLYLILGIIFGIFGPIFNKWVLGMQDLLHRVHGGNITKWVLMGGAIGGLCGLLGFVAPATSGGGFNLIPIATAGNFSMGMLVFIFVARVITTLLCFSSGAPGGIFAPMLALGTVLGTAFGMVAVELFPQYHLEAGTFAIAGMGALLAASIRAPLTGIILVLEMTDNYQLILPMIITGLGATLLAQFTGGKPLYSAILARTLAKQEAEQLARSK
B10: NINJ1 x (Homo sapiens, UniProt Q92982); sequence looked up; chain MDSGTEEYELNGGLPPGTPGSPDASPARWGWRHGPINVNHYASKKSAAESMLDIALLMANASQLKAVVEQGPSFAFYVPLVVLISISLVLQIVVGVLLIVLVKYDLNNPAKHAKLDQLNNAATILVFIIVVVNIFITAFGVQKPLMDMAPQQ

Molecule | target or system | assay | system | setting | scale | measurement | value
B1 (CRYAA R21Q/G98R) | itself | SEC-MALS |  | 1 hour h, pH 7.4, 37 °C |  | binding | binds
B2 (dlg1 1-97 Q26A) | itself | SEC |  |  |  | binding | binds
B3 (SPOP E47Q) | itself | negative-stain TEM |  |  |  | binding | binds
CAUCUCCUU (ssRNA) | U2AF2 | sequencing of bound RNA | RNA | motif only |  | Kd | 1670 nM
B4 (clcA C85A/H234C/R230C/L249C) | itself | FRET |  |  |  | binding | binds
human IPO8 | PP6C (human) | co-immunoprecipitation, IP-MS | CYB5R4 knockout cells | concentration not given | reference: CYB5R4 knockout over parental | log2 fold change | -0.44
B5 (dszC S163A) | itself | SEC |  |  |  | binding | binds
B6 (human CIP4) | CYB5R4 knockout human cells | PP4 interaction, 3xFLAG-PP4C IP-MS |  | concentration not given | reference: CYB5R4 KO over parental | log2 fold change | -0.32
B7 (FCY1 homodimer M100W) | itself | crystal structure |  |  |  | binding | binds
B8 (Gm4951 N190A/E191A) | itself | mass photometry |  |  |  | binding | binds
MDKVQYLTRSAIRRASTIEMPQQARQNLQNLFINFCLILICLLLICIIVMLL (PLN (Sus scrofa, UniProt P61013); pS16; sequence looked up) | itself | immunoblot SDS-PAGE |  |  |  | binding | binds
B9 | itself | SEC |  |  |  | binding | binds
B10 (NINJ1 x) | itself | negative-stain EM |  |  |  | binding | binds
GUUCCCGCU (ssRNA) | U2AF2 | sequencing of bound RNA | RNA | motif only |  | Kd | 3370 nM

Some of these lines once more:
Molecule | target or system | assay | system | setting | scale | measurement | value
human IPO8 | PP6C (human) | co-immunoprecipitation, IP-MS | CYB5R4 knockout cells | concentration not given | reference: CYB5R4 knockout over parental | log2 fold change | -0.44
B5 (dszC S163A) | itself | SEC |  |  |  | binding | binds
